Assay results collected from several papers.
Every numbered part comes from another study and shows a few of its results, in no order. Changes are numbered by the printed parent chain.

Series 1
Target: Protein max, full length (MAX, Homo sapiens, UniProt P61244-2, residues 1-151)
Method: protein-binding microarray
Form: double-stranded DNA, one strand shown
Medium: in vitro
Concentration: not given
Notes: k-mer, scored over probes, only values ≥0.25
Direction: higher = stronger binding
Oligonucleotide	E-score
ACACGGGG	0.411
GGCCACAC	0.251
CGTGAACA	0.281
CACGCGGC	0.473
ACATGTCC	0.35
CCACGCTA	0.369
ACATGTCG	0.309
GCATGGCA	0.412
CGTGTTCA	0.416
ACGCGAGG	0.309
ACATGTTG	0.389
CGAACACG	0.363
ACGGTGTG	0.263
CACATTGA	0.262
CGTGACAA	0.342
CAGGTGGG	0.38
AAACGTGA	0.385
ATGTGCTA	0.306
GCACGTTA	0.388
AGCGTGCA	0.429
CTCGTGCA	0.402

Series 2
Target: Histone acetyltransferase KAT6A, winged helix 2, GST fusion (KAT6A, Homo sapiens, UniProt Q92794, residues 85-181)
Method: protein binding microarray
Form: double-stranded DNA, one strand shown
Medium: in vitro
Concentration: not given
Notes: 8-mer, flanks averaged, mean of 2 arrays, mostly near background
Baseline: not given
Direction: higher = stronger binding
Target sequence (chain): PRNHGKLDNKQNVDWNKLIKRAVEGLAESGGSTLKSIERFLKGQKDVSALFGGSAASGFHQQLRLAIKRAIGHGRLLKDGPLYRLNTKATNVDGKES
Oligonucleotide	E-score
CAACCGAG	0.196
AAGGCTTC	-0.146
AGTAGGAT	-0.107
CCTATATC	-0.0974
AAAGTTAG	0.0289
GGCTCTAC	-0.127
GACACGTA	-0.16
CGACCGAC	-0.0376
CCTGCCAG	0.147
CTGACAAC	0.127
CAGTGCCA	-0.152
AATAGGCT	-0.0578
CACGTTGA	-0.0827
ATTGTTTC	0.1
ACTCGTAA	-0.069
GAAGTGTA	-0.284
CCTGGTAA	-0.18
ACTTATTA	-0.134
AAACATCT	-0.129
GCCAGGCA	0.0788
GAACAAGC	-0.0127
CAACAGAG	0.0599
GCCTTGGA	-0.0177

Series 3
Target: RNA binding protein fox-1 homolog 2, RRM domain, GST-SBP tag (RBFOX2, Homo sapiens, UniProt O43251-10, residues 100-194)
Method: RNA Bind-n-Seq
Form: RNA
Medium: in vitro
Concentration: 365 nM
Notes: natural RNA segment, single round, ends assumed
Baseline: no-protein control
Direction: higher = stronger binding
Shared flanks, not repeated: GGGAGUUCUACAGUCCGACGAUC … UGGAAUUCUCGGGUGCCAA
Residues (chain): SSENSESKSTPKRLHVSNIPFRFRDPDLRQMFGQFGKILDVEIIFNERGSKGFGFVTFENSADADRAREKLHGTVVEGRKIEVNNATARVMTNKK
Oligonucleotide	RBNS enrichment (R)
ACAGGCCUCUGGAGCCAGGCGACUUCUUGGGAAACUGUCAUCUCCCGACUCCUCCCUGAGCCAGCCUCCGCUCAGUGUGGCUCCUCAGCCCACAGAGGGGAGGGAGCAUG	2.59
UGUAGGCCCCUCUGCAACGACUUCCUUUGCACCAAAGACAACAGUCUACAAGUUUCUACUUUCUUGUUUGAUUGAGCAAAGUCUCCUAGUGACAGCAACACCAUGAAUUU	0.374
UAACAGAAAAAAAUUAUACAAUUUUGACAAUAUUAUUUUUCGUAUCAGGUUGCUGUUUAAUUUUGGAGGGGGUGGGGAAAUAGUUCUGGUGCCUUAACGCAUGGCUGGAA	4.05
AAGAAAAGUAUAUAGAUCUGUAAUUGGACAGCUCUCUCGAAGAGAUCUUACAGACUGUAUCAGUCUAAUUUUUAAAUUUUAAGUUAUUUUGUACAGCUUUGUAAAUUCUU	0.45
CCUCCUGAGCCUGCUGGAUGAGACUCCUGCCUGGACCCCCUGCAGGGCAACAGCUGCUGCUGCUUUUGAACAGAAUGGUAGACAGCAUUUACCCUCAGCCACUUCCUCUG	0.256
CCGAGAGUCUGGAGUUAGCCCAGUGUUAGGGUAGGAAGGUAGUGGCAGCUUUCCAAAGGGCCUAAAACACCAGGACUGCCUCUGUGAAAGGCCCGAGUGGCUUUGAUGCA	3.2
AUUUUUUCCUGUACUGGAUGGCUAGGAUUCUAGAGAAUUGAUUAUAAAAUAUUUUCAAUACAUCCAACAUUGCACUUCUCAUUUUUUAAAUGAUUCUGUCACGUAGAAUC	0.985
GUGUCUCACUAAAGCAUGAAAUGUGAAUUUUUAUUGUUGGAAAUAUAAUUUAAGGUAUUUAUGUUCUUCUCUGUGAGAAGGUUUAUUGUUAAUACAAGGUAUAAAAAACA	10.5
UAUAAUGCCUCCUUCCGGGGCAGAGAGCAGGCACUCCCAGCUGGAGCAGAAUAGCAGUUCAGGGUCGCUUAAGGAGUCACCACAACUUAUGUGUUGGGUGACCACAAAAU	0.5
UAAGAGUUUGGAAAUAGGGGCUGGAGAGAUGCCUCUGUGGUUAAGAGCAUUGGCUGCUCCUCUAGAGGACCCAGGUUCAAUUCCCAGCGCCCACACAUCAGCUCACAACU	0.31
ACCUCGCUCUAAUGGCUUAACAGUUGUUCUGGGUGGAAACGUCCCCUCAUUUGAAUGCUCCUCUAAAAAAAAAAGAAAAGAAAACUGUAUUCAUUCCCUUUAAAAUGAAA	0.646
AGUCUUCGUGUUUUGCACCCUGUGCAUUGCUAUAUUCACAAGUACCAACUGUAGGAGUCAGAGGUGUUGGCAAAAGUAUGCAUGAAUGCUAACCUUUGCACAUACUCUGU	0.991

Series 4
Target: CREBZF, bZIP domain (human)
Method: DHFR protein complementation
Medium: yeast
Notes: single substitutions, most at no-binding floor
Baseline: wild-type JUN-FOS pair
Direction: higher = stronger binding
Starting sequence: JUN, bZIP domain (human); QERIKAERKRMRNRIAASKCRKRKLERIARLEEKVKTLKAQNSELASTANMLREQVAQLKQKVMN; partner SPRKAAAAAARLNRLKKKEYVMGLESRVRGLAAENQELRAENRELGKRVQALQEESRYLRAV
Variant	binding fitness
L52A	-1.5 natural log
Q55L	-1.45 natural log
L38D	-1.53 natural log
L59R	-1.39 natural log
L38G	-1.43 natural log
E33A	-1.29 natural log
L38W	-1.53 natural log
K39Y	-1.42 natural log
Q55F	-1.47 natural log
A46S	-1.53 natural log
A57T	-1.33 natural log
I28Q	-1.49 natural log
Q41P	-1.46 natural log
R53W	-1.49 natural log
K34V	-1.26 natural log
V56W	-1.51 natural log
T48A	-1.37 natural log
K36R	-1.43 natural log

Series 5
Target: Ras GTPase-activating protein-binding protein 1, full length (G3BP1, Homo sapiens, UniProt Q13283)
UniProt Q13283, sequence (whole entry, looked up): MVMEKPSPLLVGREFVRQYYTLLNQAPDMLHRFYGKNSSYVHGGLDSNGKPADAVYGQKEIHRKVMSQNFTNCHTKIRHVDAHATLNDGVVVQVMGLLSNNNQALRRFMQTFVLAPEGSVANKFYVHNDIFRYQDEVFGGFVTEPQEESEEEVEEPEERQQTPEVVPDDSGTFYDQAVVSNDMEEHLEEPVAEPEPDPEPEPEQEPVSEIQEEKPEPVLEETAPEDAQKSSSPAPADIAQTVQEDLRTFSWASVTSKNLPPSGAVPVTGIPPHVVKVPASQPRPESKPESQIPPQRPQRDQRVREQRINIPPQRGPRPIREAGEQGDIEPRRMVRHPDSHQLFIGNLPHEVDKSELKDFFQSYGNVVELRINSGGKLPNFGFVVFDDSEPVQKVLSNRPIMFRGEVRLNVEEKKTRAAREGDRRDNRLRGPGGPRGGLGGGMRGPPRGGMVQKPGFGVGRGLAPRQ
Method: RNA Bind-n-Seq
Form: RNA
Medium: in vitro
Concentration: 200 nM
Notes: whole 134-nt RNA, ends assumed
Added: 150 mM KCl
Baseline: input library
Direction: higher = stronger binding
Shared flanks, not repeated: GGGAGUUCUACAGUCCGACGAUC … UGGAAUUCUCGGGUGUCAAGG
Oligonucleotide	log2 enrichment
UACUAUCAAACAAUCGGAAACCACGCGUCCUACUACAAAGAUGCUCUGCGGUUUUUGGGCUGUGUUGACAUCAAGGAUCUACCAGGUAAC	-1.2
CAAGUCCUGUGCUACACAUCGUAUGUACCGAAUCGGGUUUUGGUUUUGGGUUUUGGAAAGUAUUAUGUUACGCCGUUCGGAUCUGCACUU	-1.18
UAACUUUAGCGGAGGAUCUGAUGGAUAUGGCAGUGGACGUGGAUUUGGGGAUGGCUAUAAUGGGUAUGGAGGAGGACCUGGAGGUGGCAA	0.459
CUCAAGUCCUGUGCUACACAUCGUAUGUACCGAAUCGGCCCGGCCCGGCCCGGAAAGUAUUAUGUUACGCCGUUCGGAUCUGCACUUCCA	-0.217
CUCAAGUCCUGUGCUACACAUCGUAUGUACCGAAUCGGGAAAGGGAGGGUGGGAAAGUAUUAUGUUACGCCGUUCGGAUCUGCACUUCCA	1.21
CAAGUCCUGUGCUACACAUCGUAUGUACCGAAUCGGGUUGGGGUUGGGGUUGGGGAAAGUAUUAUGUUACGCCGUUCGGAUCUGCACUUC	1.09
UCCUGUGCUACACAUCGUAUGUACCGAAUCGGUUUUUUUGGUUUUUUUGGGUUUUUUUGGAAAGUAUUAUGUUACGCCGUUCGGAUCUGC	-0.369
UCCUGUGCUACACAUCGUAUGUACCGAAUCAAAUUUAAACCCCCCCAAAUUUUUUUAAAAAAGUAUUAUGUUACGCCGUUCGGAUCUGCA	0.41
ACCAUGCAGGUGGGCAUCUUUGGGAAGUGGGGCAAGGGGGGGAUAGGGAGGGGGGUAACACUUUGGGAACAGGUGGUCCCAGGACGUUUC	1.51
GUCCUGUGCUACACAUCGUAUGUACCGAAUCGGGAAAAAGGGGAAAAAGGGAAAAAGGAAAGUAUUAUGUUACGCCGUUCGGAUCUGCAC	-0.56
GUCCUGUGCUACACAUCGUAUGUACCGAAUCGGGGAAAAAGGGGAAAAAGGGAAAAAGGAAAGUAUUAUGUUACGCCGUUCGGAUCUGCA	-0.162
AGAAAGCCCAGGAGGAACCACCUGCCAAGCUGCUGGAUGACCUUUUCCGAAAGACCAAGGCAGCUCCCUGCAUCUAUUGGCUCCCACUGA	0.182
AGUCCUGUGCUACACAUCGUAUGUACCGAAUCGGGGUUUUUGGGGAGGGGAAAGGGGAAAGUAUUAUGUUACGCCGUUCGGAUCUGCACU	0.359
GUCCUGUGCUACACAUCGUAUGUACCGAAUCGGGGAGGGGAAAAAAAGGGGUUUGGGGAAAGUAUUAUGUUACGCCGUUCGGAUCUGCAC	0.312

For quick reference, copied from above (series 5):
Oligonucleotide	log2 enrichment
UCCUGUGCUACACAUCGUAUGUACCGAAUCGGUUUUUUUGGUUUUUUUGGGUUUUUUUGGAAAGUAUUAUGUUACGCCGUUCGGAUCUGC	-0.369
AGAAAGCCCAGGAGGAACCACCUGCCAAGCUGCUGGAUGACCUUUUCCGAAAGACCAAGGCAGCUCCCUGCAUCUAUUGGCUCCCACUGA	0.182
UACUAUCAAACAAUCGGAAACCACGCGUCCUACUACAAAGAUGCUCUGCGGUUUUUGGGCUGUGUUGACAUCAAGGAUCUACCAGGUAAC	-1.2
CUCAAGUCCUGUGCUACACAUCGUAUGUACCGAAUCGGGAAAGGGAGGGUGGGAAAGUAUUAUGUUACGCCGUUCGGAUCUGCACUUCCA	1.21
CAAGUCCUGUGCUACACAUCGUAUGUACCGAAUCGGGUUUUGGUUUUGGGUUUUGGAAAGUAUUAUGUUACGCCGUUCGGAUCUGCACUU	-1.18
ACCAUGCAGGUGGGCAUCUUUGGGAAGUGGGGCAAGGGGGGGAUAGGGAGGGGGGUAACACUUUGGGAACAGGUGGUCCCAGGACGUUUC	1.51
CAAGUCCUGUGCUACACAUCGUAUGUACCGAAUCGGGUUGGGGUUGGGGUUGGGGAAAGUAUUAUGUUACGCCGUUCGGAUCUGCACUUC	1.09
AGUCCUGUGCUACACAUCGUAUGUACCGAAUCGGGGUUUUUGGGGAGGGGAAAGGGGAAAGUAUUAUGUUACGCCGUUCGGAUCUGCACU	0.359
GUCCUGUGCUACACAUCGUAUGUACCGAAUCGGGGAAAAAGGGGAAAAAGGGAAAAAGGAAAGUAUUAUGUUACGCCGUUCGGAUCUGCA	-0.162
UAACUUUAGCGGAGGAUCUGAUGGAUAUGGCAGUGGACGUGGAUUUGGGGAUGGCUAUAAUGGGUAUGGAGGAGGACCUGGAGGUGGCAA	0.459
